Results gathered from unrelated publications.
Parts stem from different laboratories: compare values within a part only.

Series 1 — method: protein binding microarray; form: double-stranded DNA, one strand shown; sample: in vitro; tested at: not given; relative to: not given; reading: higher = stronger binding
Target: Histone acetyltransferase KAT6A, winged helix 1, GST fusion (KAT6A, Homo sapiens, UniProt Q92794, residues 1-85)
Setting: 8-mer, flanks averaged, mean of 2 arrays, mostly near background
Construct (chain): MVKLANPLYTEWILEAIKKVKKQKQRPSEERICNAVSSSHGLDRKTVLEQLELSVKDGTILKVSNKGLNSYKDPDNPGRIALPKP
With `GACAAATA` the E-score was -0.201.
With `TCGGCCCA` the E-score was 0.101.
With `ATAAAAAC` the E-score was -0.0863.
`AGCTCCTA` has an E-score of -0.107.
For `TCCCCGAA`, the E-score was 0.0413.
`AAAGCAGA` gave an E-score of -0.274.
With `ACACCCCA` the E-score was -0.237.
The E-score of `AACTCAAT` is reported as -0.234.

Series 2 — method: RNA Bind-n-Seq; form: RNA; sample: in vitro; tested at: not given; setting: RNA with constant flanks, ends assumed; relative to: input RNA pool; reading: higher = stronger binding
Target: RING finger protein unkempt homolog, zinc fingers 1-6, GST-SBP tag (UNK, Homo sapiens, UniProt Q9C0B0, residues 30-357)
All sequences stand within: GGGAGUUCUACAGUCCGACGAUC … CAACAGAGGAUUGAGCAUCA
Target sequence (chain): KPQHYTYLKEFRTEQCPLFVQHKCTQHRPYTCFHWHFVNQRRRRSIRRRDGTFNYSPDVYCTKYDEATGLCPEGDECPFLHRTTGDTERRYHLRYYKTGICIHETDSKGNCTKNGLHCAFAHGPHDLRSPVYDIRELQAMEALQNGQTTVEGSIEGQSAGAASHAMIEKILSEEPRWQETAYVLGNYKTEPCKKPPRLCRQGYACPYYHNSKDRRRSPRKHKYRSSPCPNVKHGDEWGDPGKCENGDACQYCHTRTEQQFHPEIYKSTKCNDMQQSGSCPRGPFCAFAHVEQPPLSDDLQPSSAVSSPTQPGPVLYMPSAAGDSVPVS
The bound/input enrichment of `UUUUUUUUAAAAUAGAAAAUAAAUCUGACAACAAAUACUUUAAAAAUUGUAAAUAGUUUUCCGUUUUACGACUUAAAGUGUUUUGAUGGGGAAAGUUGAUUGAAACUAUAACUGGUUUUA` is reported as 1.37 ratio.
For `GAAGAUUUAUAUUUGCAAAGAGUAGCCGAACUGGACAAAAUUACUUCUGAAAGAGAUAAUUUCCGACAAGCAUAUGAAGAUCUUCGAAAACAAAGGCUGAAUGAAUUUAUGGCUGGUUUU`, the bound/input enrichment was 0.207 ratio.
For `CCAAGAAGGGCCUCCAACAGGCAAAUUCAGGGAGAGGAUGGUUUCAGGGAAUAUCAGUUUAUCCGUGGGUCAUGAAUUAUAGACUUAACAGUAAUGGUUUGUGGUAGGAAGAUCACAACU`, the bound/input enrichment was 0.457 ratio.
With `UCUAGAAUGUCUUCAACUAAAUCAAGUGGAAGUGAAUCUGAUAGAUCAGAAAGACCUGUAUCCGUACGCCAGUCAACUUUCAUCAAAGAAGCUCCAAGCCCAACCUUAAGAAGAAAAUUG` the bound/input enrichment was 0.212 ratio.
`AUUGAAAUAUUCACUGACCUCAGCAGCCGAUUCAGCAAAAGUCAGCUGGAUAUUAUAAUUCACCGCUUGAAGAAAUGUGACAUCUCCCUGCAAUUCUUCUUGCCUUUCUCACUUGGCAAG` gave a bound/input enrichment of 0.086 ratio.
`AGUGUUAAAUUUAACCCUGUUGAGACAUUUCUCUUGGGAAGUUGUGCUUCUGAUAGGAAUACCGUACUGUAUGAUAUGCGGCAAGCUACUCCUUUGAAAAAGGUUAUCCUGGAAAUGAGG` gave a bound/input enrichment of 0.246 ratio.
`CAACAAGCUGGCCAUGAUGAAGGUGUUCUGGAUCGUCUUGUGGACAGGAGGGAACGGCCACCCGAAGGUGGCCGAACUAAUUCCAAUAACAACAACAGCAAUCCAUGUUCAGAACAAGAU` gave a bound/input enrichment of 0.0842 ratio.
For `UGGGAACCGGCGAGAAUCGCCUUUCUGAAUGAAGAGCCCUCUUCACUGCCCCACCCUCACCUCCGAAUUCUCUCCUCUUUCCAAAGAAUGGCAGUUGAACCUCACUGGCCCCUCUGGGGA`, the bound/input enrichment was 0.227 ratio.
`UCCUUUCAGCGGCGCGCGGCUGCAAGAUGGCGGUGCAGAUUUCCAAGAAGAGGAAGUUUGCCGCUGAUGGCAUCUUCAAAGCUGAGCUGAAUGAAUUUCUCACUCGGGAGCUGGCUGAAG` has a bound/input enrichment of 0.0895 ratio.

Series 3 — method: RNA Bind-n-Seq; form: RNA; sample: in vitro; tested at: 365 nM; relative to: no-protein control; reading: higher = stronger binding
Target: RNA binding protein fox-1 homolog 2, RRM domain, GST-SBP tag (RBFOX2, Homo sapiens, UniProt O43251-10, residues 100-194)
Setting: natural RNA segment, single round, ends assumed
All sequences stand within: GGGAGUUCUACAGUCCGACGAUC … UGGAAUUCUCGGGUGCCAA
Construct (chain): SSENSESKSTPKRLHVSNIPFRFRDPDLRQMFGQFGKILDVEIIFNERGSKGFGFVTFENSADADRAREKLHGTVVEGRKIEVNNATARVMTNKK
For `GUAUAAAAAUGUGUAUACCAAUUUGGGAAUAGGGGAACCCAGUCAUGGAUGGAUAAUAAGCCAAGUCUUGAAUCAUUCCUAUCAAGAUUAGUAUACAUGAGGAAGAGGUG`, “RBNS enrichment (R)” read 0.517.
`UGGUGGUAGAUGUAUGUAAAUUAGAAGUUUGAAUGGGACAGGAUGAGAGUUCGAGGCUCUUUGUUUGGUAUCUUUUGUGUUAAUGUGUCUUGAAUCUGCCAAUCUGUAUG`: “RBNS enrichment (R)” 3.
`AGCCCAGGUCCUCAAAGACACAGGAGGCUGCUGAUAUAGGCUGUUCCAGAGAUCCCUGUCUAGUCCCUGUGCAUCUCUUGGCAGUGACCUACUAUUUAUGAGGCCUCUGU`: “RBNS enrichment (R)” 0.477.
Under “RBNS enrichment (R)”, `CCCAAGAGCCUGGAGGCACUGCUGUCCUUCCUGCAGAAACAGUUUCUCCUCCUCCCCUCAGCCUUGUGGCCAGUUCCUCUUCACAUGAAGCCCCUGGCAUUUGCUGGGGA` is recorded as 0.378.
`AACCAGGCCAGUCCGGCUCUGGGGAGCAGGGGCCUCCCCGGCAACAGCCCCAGGGGCCUUGAGGGUCUGAGGUCCCAGCCCUGUUGCCAAGUGACCUUGUCCCCAGCUCC`: “RBNS enrichment (R)” 0.297.
Under “RBNS enrichment (R)”, `AUGAUUUAGUUUUGUUAUUGCAUGUCUGUGUUAAGUAUUUUACAUUUGAGAUUGGAAUUAUUAGACAAAUCUUCCAAAGAUGCACUUUAGGAAGUUGCUAUUGGCCACAU` is recorded as 2.15.
`CCUCCUCACCCCAGGUGCCUUAAGACAGCCCAGUUCUAACCUGAUAUUCAUGACCAAACUAGCCCUGACACUCAGGGACCUGGGCCUCUGCUGACUGUCAGGAGCAAAAC`: “RBNS enrichment (R)” 0.545.
Under “RBNS enrichment (R)”, `CGGGCUCUUCCCAGCCAACUAUGUGGAGCUGCGGCAGUAGGGCUGCCACCCAGAGCCUACCGGCACCAGCACAGGGUUCACACUACAGAGCAUCUGCGUGUGUUUGAGUU` is recorded as 0.313.

Mixed results
`PhoQ, residues 284 288 289 292 302 303 ASTSDA` gave a fold induction of 14.9 (PhoP, residues 12 14 15 18 19 QQAYL (Escherichia coli, UniProt P23836); Sort-seq, measured: YFP reporter; E. coli; PhoQ-PhoP variant library, added: 10 µM Mg2+; relative to: high Mg2+ state, higher = stronger signaling).

For quick reference, copied from above (series 1):
For `TCCCCGAA`, the E-score was 0.0413.
`AAAGCAGA` gave an E-score of -0.274.
